Published values pooled from the literature.
Protocols differ between the studies behind these lines. Several values in a cell are separate wells, animals, samples, runs or records. ± marks the error that the study gave.
UniProt P32300, sequence (whole entry, looked up): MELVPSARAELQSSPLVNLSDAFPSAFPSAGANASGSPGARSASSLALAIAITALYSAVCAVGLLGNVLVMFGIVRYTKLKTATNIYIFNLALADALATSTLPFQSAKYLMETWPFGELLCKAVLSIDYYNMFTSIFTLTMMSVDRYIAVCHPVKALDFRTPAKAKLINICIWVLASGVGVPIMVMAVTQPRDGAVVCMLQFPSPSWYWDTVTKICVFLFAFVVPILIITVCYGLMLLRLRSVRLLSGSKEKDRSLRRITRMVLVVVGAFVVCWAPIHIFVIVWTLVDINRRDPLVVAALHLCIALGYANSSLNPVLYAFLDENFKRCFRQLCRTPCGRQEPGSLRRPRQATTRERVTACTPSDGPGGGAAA
UniProt P48730, sequence (whole entry, looked up): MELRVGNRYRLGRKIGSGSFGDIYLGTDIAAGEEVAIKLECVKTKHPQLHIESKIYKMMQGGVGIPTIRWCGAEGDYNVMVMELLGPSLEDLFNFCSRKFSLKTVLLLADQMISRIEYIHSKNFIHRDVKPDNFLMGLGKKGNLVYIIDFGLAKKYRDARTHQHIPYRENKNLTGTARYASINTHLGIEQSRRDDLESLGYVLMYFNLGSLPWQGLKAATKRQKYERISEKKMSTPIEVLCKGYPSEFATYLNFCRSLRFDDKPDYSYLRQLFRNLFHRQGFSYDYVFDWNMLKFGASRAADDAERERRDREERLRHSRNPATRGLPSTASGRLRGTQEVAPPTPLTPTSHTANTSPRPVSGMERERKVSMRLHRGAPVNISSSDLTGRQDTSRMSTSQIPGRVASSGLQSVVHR
UniProt Q12851, sequence (whole entry, looked up): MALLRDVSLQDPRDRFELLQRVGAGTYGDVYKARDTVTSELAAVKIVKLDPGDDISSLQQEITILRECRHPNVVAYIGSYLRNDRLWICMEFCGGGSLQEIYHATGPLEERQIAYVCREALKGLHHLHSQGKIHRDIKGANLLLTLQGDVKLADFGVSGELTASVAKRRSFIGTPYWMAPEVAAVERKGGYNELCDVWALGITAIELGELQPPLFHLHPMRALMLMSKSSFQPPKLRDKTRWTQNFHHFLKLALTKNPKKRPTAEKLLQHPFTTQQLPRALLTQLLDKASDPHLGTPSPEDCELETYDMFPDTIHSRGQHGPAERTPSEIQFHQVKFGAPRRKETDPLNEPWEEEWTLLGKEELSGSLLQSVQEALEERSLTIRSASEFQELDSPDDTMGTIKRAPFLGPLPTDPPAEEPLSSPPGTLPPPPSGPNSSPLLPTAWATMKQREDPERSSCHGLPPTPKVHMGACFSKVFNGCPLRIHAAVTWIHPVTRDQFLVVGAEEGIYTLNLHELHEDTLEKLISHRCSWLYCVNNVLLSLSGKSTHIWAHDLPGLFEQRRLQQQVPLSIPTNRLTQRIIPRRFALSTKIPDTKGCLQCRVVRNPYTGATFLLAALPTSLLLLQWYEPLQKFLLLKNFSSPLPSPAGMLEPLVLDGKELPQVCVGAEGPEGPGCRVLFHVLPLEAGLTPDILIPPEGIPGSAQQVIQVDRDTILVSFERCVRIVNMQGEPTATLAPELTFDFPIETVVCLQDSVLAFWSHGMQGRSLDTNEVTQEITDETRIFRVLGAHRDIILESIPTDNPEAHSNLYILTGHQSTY

With `CC(C)[C@H]1NC(=O)[C@@H](C)NC(=O)[C@@H](C(C)C)NC(=O)[C@@H](Cc2ccccc2)NC(=O)[C@@H](C(C)C)NC(=O)[C@@H]([C@H](C)O)NC(=O)[C@@H](Cc2ccc(O)cc2)NC(=O)[C@@H](CCCNC(=N)N)NC(=O)[C@@H]2CCCC[C@H]2NC(=O)[C@@H](CO)NC(=O)[C@H](Cc2ccc(O)cc2)NC(=O)CSC[C@@H](C(=O)NCCOCCOCCOCCOCCOCCOCCC(N)=O)NC(=O)[C@@H](CO)NC(=O)[C@@H](C(C)C)NC(=O)[C@@H](Cc2ccc(O)cc2)NC1=O` the IC50 was ~1 µM (CFPAC-1; cell migration; 18 h).
`CCCCCCCC(=O)NCCCC[C@H](NC(=O)CCCCCCC)C(=O)N[C@@H](CCCCNC(=O)CCCCCCC)C(=O)NCC(=O)NCC(=O)NCC(=O)N[C@@H](CS)C(=O)N[C@@H](CCCNC(=N)N)C(=O)N[C@@H](CCCCN)C(=O)N1CCC[C@H]1C(=O)N[C@@H](CS)C(=O)N[C@@H](CCCNC(=N)N)C(=O)N[C@@H](CCCCN)C(=O)N1CCC[C@H]1C(=O)N[C@@H](CS)C(=O)N[C@@H](CCCNC(=N)N)C(=O)N[C@@H](CCCCN)C(=O)N1CCC[C@H]1C(N)=O` has an IC50 of 314 µM (human red blood cells; haemolysis; pH 7.4, 37 °C; reference: Triton X-100).
For `CC(C)C12OC1C1OC13C1(C)CCC4=C(COC4=O)C1CC1OC13C2OC(=O)CCCOC1OC(CO)C(O)C(O)C1O` (stereo not shown), the IC50 was 24.4 µM (SNU-387; cell growth or viability, XTT; 47 h).
`Cc1cc(Oc2nc(N3CC[C@@H](c4ccncc4)C3)ncc2F)[nH]n1` has an IC50 of 60.3 µM (SK-BR-3; cell growth or viability).
The IC50 of `COC(=O)[C@@H](NC(=O)[C@@H](NC(=O)[C@@H](NC(=O)[C@@H]1CCCN1C(=O)[C@H](C)NC(=O)OC(C)(C)C)C(C)C)C(C)C)C(C)C` is reported as 25.6 µM and 18.8 µM and 19.2 µM (DU-145; cell growth or viability, SRB).
`CC[C@H](C)[C@H](NC(=O)[C@H](CO)NC(=O)[C@H](Cc1ccc(O)cc1)NC(=O)[C@H](Cc1ccc(O)cc1)NC(=O)[C@H](CC(N)=O)NC(=O)CNC(=O)[C@H](CO)NC(=O)[C@H](Cc1ccc(O)cc1)NC(=O)[C@H](CO)NC(=O)[C@H](CO)NC(=O)[C@H](CC(N)=O)NC(=O)COCCOCCNC(=O)CN1CCN(CC(=O)O)CCN(CC(=O)O)CCN(CC(=O)O)CC1)C(=O)N[C@@H](CC(C)C)C(N)=O` [copper-64 labelled] has a tissue uptake of 13.3 %ID/mL (dynamic PET; KPC mouse Ptf1a-CreER tdTomato, metastases; intravenous, 4.6 MBq/mouse, 27.5 min, 84 d after tamoxifen).
For `Cc1cc(C(=O)Nc2nc3cccc(C)c3n2[C@H]2CCCCN(C(=O)/C=C/CN(C)C)C2)ccn1`, “cell cycle distribution” read 44.9% and 46.6% and 45.4% (Trypanosoma brucei; propidium iodide flow cytometry, refers to: G2/M phase; bloodstream parental line; concentration not given).
With `COc1ccccc1-c1n[nH]c2nc(N[C@H]3CC[C@H](NS(=O)(=O)CC(C)C)CC3)ncc12` the relative abundance was 1.14 (bead binding, competition bead pull-down, refers to: LINJ.26.0840; Leishmania donovani extract; 10 µM; reference: vehicle).
The IC50 of `C[C@H]1[C@H](OC(=O)CCC(=O)OCCC2CCN(CC(=O)Nc3ccc([N+](=O)[O-])c(C(F)(F)F)c3)CC2)O[C@@H]2O[C@@]3(C)CC[C@H]4[C@H](C)CC[C@@H]1[C@@]24OO3` is reported as 1.24 µM (OVCAR-3; cell growth or viability, CCK-8).
`CC(=O)N[C@H](C(=O)N[C@@H](CCCNC(=N)N)C(=O)N[C@@H](CCCCN)C(=O)N[C@@H](CCCNC(=N)N)C(=O)N[C@@]1(C)CCCC=CCCC[C@@](C)(C(=O)N[C@@H](CC(C)C)C(=O)N[C@@H](CCC(N)=O)C(=O)N[C@@H](CCC(=O)O)C(=O)N[C@@H](CCCNC(=N)N)C(=O)N[C@@H](CCC(=O)O)C(=O)N[C@@H](CC(C)C)C(=O)N[C@H](C(=O)N[C@@H](CCC(=O)O)C(N)=O)C(C)C)NC(=O)[C@H](CCCNC(=N)N)NC(=O)[C@H](CCCNC(=N)N)NC(=O)[C@H](CC(C)C)NC1=O)C(C)C` has an IC50 of 77.2 ± 12.7 µM (H3255 (EGFR L858R); cell viability, ATP luminescence; 18 h).
`C[C@@H]1COCCN1c1nc(NCc2cccnc2C(F)(F)F)c2cccnc2n1` has an IC50 of > 14 µM (cardiomyocytes; cellular ATP level; in vitro toxicology).
For `O=C1NC2(CC2)COc2ncc(F)cc2[C@H]2COCCN2c2ccn3ncc1c3n2`, “organ-to-brain weight ratio” read 66 ± 11.2% (Sprague-Dawley rat, female, heart; oral, 2.5 mg/kg/day, 4 weeks, end of treatment).
The log GI50 of `CC(C)(C)C(=O)OCOP(=O)(OCOC(=O)C(C)(C)C)C1CCCN(O)C1=O` (stereo not shown) is reported as -6.16 log M (HOP-92).
`CC(C)[C@H]1NC(=O)C[C@H]2/C=C/CCSSC[C@@H](NC1=O)C(=O)N[C@H](Cc1cccc3ccccc13)C(=O)NCC(=O)O2` gave an inhibition of 3.6% (CSNK1D (Homo sapiens, UniProt P48730); enzyme activity, inhibitor; 10 µM).
`CCOc1ccccc1-n1c(CN2CCNCC2)nc2cc(Br)ccc2c1=O` has an IC50 of 0.39 µM (PANC-1; cell growth or viability, ATP luminescence; 72 h).
The IC50 of `[CH3][Ti+2][O]C(=O)c1ccc([S][Au][PH](c2ccccc2)(c2ccccc2)c2ccccc2)cc1.c1cc[cH-]c1.c1cc[cH-]c1` is reported as 3.37 µM (CAKI-1; cell growth or viability, XTT; 24 h).
`O=C1NC(=O)c2c1c1cc(F)c[n+]3c1c1c2c2cc(O)ccc2[n]1[Ru-4]312([N]=C=S)[S+]3CC[S+]1CC[S+]2CC3` (stereo not shown) gave a remaining activity of 108% (MAP4K2 (Homo sapiens, UniProt Q12851); enzyme activity; 100 nM, human enzyme, with: 10 µM ATP; reference: untreated).
`CCOc1ccccc1-n1c(CN2C[C@H]3CC[C@@H](C2)N3)nc2ccccc2c1=O` has an IC50 of 5 µM (PANC-1; cell growth or viability, ATP luminescence; 72 h).
The IC50 of `CC1CCC2C(C)C(OC(=O)CCC(=O)N3CCN(CC(=O)Nc4ccc([N+](=O)[O-])c(C(F)(F)F)c4)CC3)OC3OC4(C)CCC1C32OO4` (stereo not shown) is reported as > 50 µM (PC-3 (p53 null); cell growth, CCK-8; 48 h).
The IC50 of `CC(=O)N[C@H](C(=O)N[C@@H](CCCNC(=N)N)C(=O)N[C@@H](CCCCN)C(=O)N[C@@H](CCCNC(=N)N)C(=O)N[C@H](C(=O)N[C@@]1(C)CCCC=CCCC[C@@](C)(C(=O)N[C@@H](CCC(N)=O)C(=O)N[C@@H](CCC(=O)O)C(=O)N[C@@H](CCCNC(=N)N)C(=O)N[C@@H](CCC(=O)O)C(=O)N[C@@H](CC(C)C)C(=O)N[C@H](C(=O)N[C@@H](CCC(=O)O)C(N)=O)C(C)C)NC(=O)[C@H](CC(C)C)NC(=O)[C@H](CCCNC(=N)N)NC(=O)[C@H](CCCNC(=N)N)NC1=O)[C@@H](C)O)C(C)C` is reported as > 50 µM (H3255 (EGFR L858R); cell viability; 18 h, serum-free).
For `COc1ccccc1-c1n[nH]c2nc(NC3CCN(C(=O)Cc4ccc(F)cc4F)CC3)ncc12`, the relative abundance was 1.02 (bead binding, competition bead pull-down, refers to: LMJF.04.1230; Leishmania donovani extract; 10 µM; reference: vehicle).
With `CC(C)C12OC1C1OC13C1(C)CCC4=C(COC4=O)C1CC1OC13C2OC(=O)CCC(=O)OC1OC(CO)C(O)C(O)C1O` (stereo not shown) the IC50 was 0.4 µM (DU-145; cell growth or viability, XTT; 47 h).
`CCOc1ccc(-n2c(CN3CCNCC3)nc3ccccc3c2=O)cc1` gave an IC50 of > 10 µM (PANC-1; cell growth or viability, ATP luminescence; 72 h).
The IC50 of `CC(C)C[C@H](NC(=O)[C@H](CC(N)=O)NC(=O)[C@@H](NC(=O)[C@H](C)NC(=O)[C@@H](NC(=O)[C@H](CCC(=O)O)NC(=O)[C@H](CC(C)C)NC(=O)[C@H](CCCCN)NC(=O)[C@H](CCCCN)NC(=O)[C@H](CCC(=O)O)NC(=O)[C@H](Cc1c[nH]c2ccccc12)NC(=O)[C@@H](NC(=O)[C@H](Cc1c[nH]c2ccccc12)NC(=O)[C@H](CO)NC(=O)CNC(=O)CNC(=O)[C@H](CCCNC(=N)N)NC(=O)[C@H](CCCNC(=N)N)NC(=O)[C@H](CCCNC(=N)N)NC(=O)[C@H](CCC(N)=O)NC(=O)[C@H](CCCNC(=N)N)NC(=O)[C@H](CCCNC(=N)N)NC(=O)[C@H](CCCCN)NC(=O)[C@H](CCCCN)NC(=O)[C@@H](N)CCCNC(=N)N)[C@@H](C)O)[C@@H](C)O)C(C)C)C(=O)N[C@@H](C)C(=O)N[C@@H](Cc1c[nH]c2ccccc12)C(=O)N[C@H](C(=O)N[C@@H](C)C(=O)NCC(=O)N[C@@H](CC(N)=O)C(=O)N[C@@H](CO)C(=O)N[C@@H](CC(N)=O)C(=O)N[C@@H](CCCCN)C(=O)N[C@@H](Cc1c[nH]c2ccccc12)C(=O)N[C@H](C(=O)N[C@@H](Cc1c[nH]c2ccccc12)C(=O)N[C@@H](CCCCN)C(=O)O)[C@@H](C)O)[C@@H](C)O` is reported as 2.8 µM (CLL patient PBMCs; cell death, PI staining flow cytometry; 90 min).
`CCC1(c2ccc(NC(=O)CCC(=O)OC3OC4OC5(C)CCC6C(C)CCC(C3C)C46OO5)cc2)CCC(=O)NC1=O` (mixture of isomers) gave an IC50 of 1.24 µM (OVCAR-3; cell growth or viability, CCK-8).
`CS(C)(=O)=Nc1ccc(-c2ccc(-c3nc4cc(O[C@@H]5CO[C@H]6[C@@H]5OC[C@H]6O)[nH]c4cc3F)cc2)cc1` gave an inhibition of 21% (Oprd1 (Mus musculus, UniProt P32300); calcium signal, antagonist; 10 µM).
The IC50 of `CCOc1ccccc1-n1c(CN2CCNCC2)nc2ccc(I)cc2c1=O` is reported as > 10 µM (PANC-1; cell growth or viability, ATP luminescence; 72 h).
`CC(=O)N[C@H](C(=O)N[C@@H](CCCNC(=N)N)C(=O)N[C@@H](CCCCN)C(=O)N[C@@H](CCCNC(=N)N)C(=O)N[C@@]1(C)CCCC=CCCC[C@@](C)(C(=O)N[C@@H](CC(C)C)C(=O)N[C@@H](CCC(N)=O)C(=O)N[C@@H](CCC(=O)O)C(=O)N[C@@H](CCCNC(=N)N)C(=O)N[C@@H](CCC(=O)O)C(=O)N[C@@H](CC(C)C)C(=O)N[C@H](C(=O)N[C@@H](CCC(=O)O)C(N)=O)C(C)C)NC(=O)[C@H](CCCNC(=N)N)NC(=O)[C@H](CCCNC(=N)N)NC(=O)[C@H](CC(C)C)NC1=O)C(C)C` gave an IC50 of > 100 µM (H3255 (EGFR L858R); cell viability; 18 h, serum-free).
